Measurements from different studies.
“And” joins repeats or separate records; there may be more than shown. ± gives the spread as reported.

CNC(=O)c1ccc(Nc2ncc(C(F)(F)F)c(NCc3nccnc3N(C)S(C)(=O)=O)n2)cc1
inhibition (BT-12; cell viability, MTT; 10 µM, 72 h): 93.5%

CC1(C)CCC(CN2CCN(c3ccc(C(=O)NS(=O)(=O)c4ccc(NCC5CCOCC5)c([N+](=O)[O-])c4)c(Oc4cnc5[nH]ccc5c4)c3)CC2)=C(c2ccc(Cl)cc2)C1
early apoptotic cells (THP-1; annexin V/PI flow cytometry, refers to: annexin V+/PI-; 0.8 µM, 24 h): 3.5%

O=C([O-])CN(CCN(CC(=O)[O-])Cc1cc(CCC(=O)NCCCCCC(=O)NCCCC[C@H](NC(=O)N[C@@H](CCC(=O)O)C(=O)O)C(=O)O)ccc1[O-])Cc1cc(CCC(=O)O)ccc1[O-].[68Ga+3].[OH3+]
surface-bound activity (LNCaP; 25 nM, 1 h, 4 °C): 0.34 ± 0.21 %AD/mg protein

O=C(O)c1ccnc(C(=O)O)c1
viability (HBL-1; 0.5 µM, 120 h): 112%

CSc1cccc(Nc2ncc3cc(-c4c(Cl)cccc4Cl)c(=O)n(C)c3n2)c1
ATP level (hiPSC cardiomyocytes; CellTiter-Glo; concentration not given, 24 h; reference: vehicle): 96.5%

O=C([C@@H](Cc1cccc(C(F)(F)F)c1)NS(=O)(=O)c1cc(F)c2c(c1)CCNC2)N1CCCC1
viability (HBL-1; 0.5 µM, 120 h): 122%

COc1cc2ncnc(Nc3ccc(Oc4ccccc4)cc3C)c2cc1OC.O=C(O)C(F)(F)F
fractional effect (NCI-H2087 (BRAF L597V); 0.1 µM, added: trametinib 0 nM): -0.0112

O=c1c(-c2ccc(F)cc2)c(-c2ccncc2)[nH]n1-c1ccc(Cl)cc1
inhibition (HeLa expressing Ub(G76V)-GFP; Ub(G76V)-GFP degradation, cycloheximide chase; 12 µM): 53%

O=C(CCCCCCC(=O)Nc1ccc(I)cc1)NO
viability (HBL-1; 1 µM, 120 h): 0.509%

Cc1nc2cc3nc(-c4cccs4)cnc3cc2n1C
inhibition (HeLa expressing Ub(G76V)-GFP; Ub(G76V)-GFP degradation, inhibitor, cycloheximide chase; 12 µM): 32%

COc1cnc2cccc(N3CCc4c(cc(Cn5ccnc5C)cc4-c4cn(C)nc4C(F)(F)F)C3=O)c2c1
EC50 (NCI-H2087; cell growth, inhibitor; 120 h): 146 nM

CCCNC(=O)[C@H]1O[C@@H]1C(=O)N[C@H](C(=O)N1CCC[C@H]1C(=O)OC)[C@@H](C)CC
phototoxicity index (MDA-MB-231; 72 h; reference: dark EC50 over light EC50): 0.6

O=C(/C=C/c1cccc(S(=O)(=O)Nc2ccccc2)c1)NO
inhibition (BT-12; cell viability, MTT; 10 µM, 72 h): 94.2%

N=C1NC(=O)/C(=C/c2ccc(O)cc2)S1
viability (HBL-1; 0.5 µM, 120 h): 105%

COc1cccc2c1C(=O)c1c(O)c3c(c(O)c1C2=O)C[C@@](O)(C(=O)CO)C[C@@H]3O[C@H]1C[C@H](N)[C@H](O)[C@H](C)O1
maximal cytotoxicity (PANC-1; WST-1; concentration not given, 72 h, highest tested concentration): 88.5%

Cn1cc(-c2ccc(-c3cncc(Cl)c3N3CCC4(CCNC4=O)CC3)cc2)cn1
log2 fold change (COLO 205; gene expression, microarray, refers to: S100P mRNA; concentration not given, 2 h; reference: untreated cells): 4.48

COc1cc2c(NC3CCN(C)CC3)nc(N3CCCN(C)CC3)nc2cc1OCCCN(C)C
viability (HBL-1; 0.1 µM, 120 h): 111%

COc1cc2ncc(-c3ccccc3)nc2cc1OC
inhibition (HeLa expressing Ub(G76V)-GFP; Ub(G76V)-GFP degradation, cycloheximide chase; 12 µM): 29%

Cc1cc(Nc2ccc(NC(=O)c3ccc(Nc4ccnc5ccccc45)cc3)cc2)nc(N)n1
viability (HBL-1; 0.1 µM, 120 h): 83.2%

Cn1cc(CNCC2CCN(c3ncc(C(=O)NO)cn3)CC2)c2ccccc21
inhibition (BT-12; cell viability, MTT; 10 µM, 72 h): 95.4%

CCS(=O)(=O)c1nc(C2CC2)cc(C(F)(F)F)n1
cells with nuclear RelA (HeLa Kyoto; RelA nuclear import, high content imaging; 0.16 µM, 3 h, added: 1 µM PMA, 60 min): 76.2% and 78.6%

COc1ccc(NC(=S)N/N=C/c2cccc3cc4ccccc4nc23)cc1
necrotic cells (HeLa; annexin V/PI flow cytometry; IC25, 48 h): 0.69 ± 0.27%

CC(C)N(CCCNC(=O)Nc1ccc(C(C)(C)C)cc1)C[C@H]1O[C@@H](n2cc(Br)c3c(N)ncnc32)[C@H](O)[C@@H]1O
viability (HBL-1; 1 µM, 120 h): 117%
